Published values pooled from the literature.
Compare with care: the assays were run in different laboratories. ± gives the spread as reported. ≈ marks a conversion by molar mass, not a printed value.

| Structure (SMILES) | assay | test system | conditions | how to read | quantity | result |
| --- | --- | --- | --- | --- | --- | --- |
| C#CCOc1ccc(/C=C2\SC(=O)N(CC(=O)NCc3ccccc3)C2=O)cc1 | inverse Kirkwood-Buff integrals | binary solvent mixture | 298.15 K, mole fraction x1 0.90 | – | Kirkwood-Buff integral G2,3 | -350 cm³/mol |
| O=S(=O)(c1ccccc1)N1CCCCC1 | – | sodium borate buffer | 24 h, pH 8.0, hydrolytic stability | – | recovery | 67% |
| CCCCCCCC(=O)OC[C@H](NC(=O)[C@H](CO)NC(=O)CN)C(=O)N[C@@H](Cc1ccccc1)C(=O)N[C@@H](CC(C)C)C(=O)N[C@@H](CO)C(=O)N1CCC[C@H]1C(=O)N[C@@H](CCC(=O)O)C(=O)N[C@@H](Cc1cnc[nH]1)C(=O)N[C@@H](CCC(N)=O)C(=O)N[C@@H](CCCNC(=N)N)C(=O)N[C@H](C(=O)N[C@@H](CCC(N)=O)C(=O)N[C@@H](CCC(N)=O)C(=O)N[C@@H](CCCNC(=N)N)C(=O)N[C@@H](CCCCN)C(=O)N[C@@H](CCC(=O)O)C(=O)N[C@@H](CO)C(=O)N[C@@H](CCCCN)C(=O)N[C@@H](CCCCN)C(=O)N1CCC[C@H]1C(=O)N1CCC[C@H]1C(=O)N[C@@H](C)C(=O)N[C@@H](CCCCN)C(=O)N[C@@H](CC(C)C)C(=O)N[C@@H](CCC(N)=O)C(=O)N1CCC[C@H]1C(=O)N[C@@H](CCCNC(=N)N)C(=O)O)C(C)C | beat-to-beat plethysmography | human chronic HFrEF patients | intravenous infusion, 0.1 µg/kg/min, 30 min after infusion end | – | blood pressure dBP | 58.9 ± 7.5 mm Hg |
| Cc1ccccc1-c1cc(N2CC[N+](C)([O-])CC2)ncc1N(C)C(=O)C(C)(C)c1cc(C(F)(F)F)cc(C(F)(F)F)c1 | – | human, plasma | dose not given | – | time to terminal elimination phase | ~48 h |
| COC(=O)C(c1ccccc1Cl)N1CCC(SCC(=O)c2cccc(OC)c2)C(=CC(=O)O)C1 (mixture of isomers) | HPLC-MS/MS | feline EDTA plasma | 100 ng/mL, 6 h, -20 °C, storage stability | – | deviation from nominal | 4% |
| CC(=O)N[C@H](CC(=O)O)C(=O)N[C@H](Cc1c[nH]c2ccccc12)C(=O)N[C@H](Cc1ccccc1)C(=O)N[C@H](CCCCN)C(=O)N[C@H](C)C(=O)N[C@H](Cc1ccccc1)C(=O)N[C@H](Cc1ccc(O)cc1)C(=O)N[C@H](CC(=O)O)C(=O)N[C@H](CCCCN)C(=O)N[C@@H](C(=O)N[C@H](C)C(=O)N[C@H](CCC(=O)O)C(=O)N[C@H](CCCCN)C(=O)N[C@H](Cc1ccccc1)C(=O)N[C@H](CCCCN)C(=O)N[C@H](CCC(=O)O)C(=O)N[C@H](C)C(=O)N[C@H](Cc1ccccc1)C(N)=O)C(C)C | – | statin-treated high-risk CHD women, plasma | oral, 500 mg daily, day 13, 0 to 8 h, mean, outlier excluded | – | Cmax | 49.1 ng/mL |
| C=C(c1ccc(C(=O)O)c(F)c1)c1cc2c(cc1C)C(C)(C)C=CC2(C)C | – | Sprague-Dawley rat, male | oral, 100 mg/kg, 1 h, sesame oil vehicle | – | blood cholesterol | 124 ± 6.7 mg/dL |
| Cn1c(=O)oc2ccc(-c3ccc(CC(C#N)NC(=O)C4CNCCCO4)c(F)c3)cc21 (centres unmarked) | item: blood triglycerides increased | human | 60 mg single dose, fasted | – | subjects with TEAE | 33.3% |
| CCC(=O)N[C@@H](C)C(=O)OCC(=O)N[C@@H](C)C(=O)O | – | water | pH 5, 25 °C | – | depolymerization half-life | 42.8 days |
| CC(C)CCCC(C)CCCC(C)CCO[C@@H]1O[C@H](CO)[C@@H](O[C@H]2O[C@H](CO)[C@@H](O)[C@H](O)[C@H]2O)[C@H](O)[C@H]1O (some centres unmarked) | dynamic surface tension | water | 0.0072 mmol/L | – | diffusion coefficient | ~2.9e-10 m²/s |
| Cc1ccc(-c2ccc(-c3cc4sccc4o3)cn2)nc1 | TCSPC | DMF | – | – | radiative decay rate constant | 0.5 ns⁻¹ |
| O=C(CCCCC[N+]#[C][99Tc-5]([C]#[N+]CCCCCC(=O)N[C@H]1C(O)O[C@H](CO)[C@@H](O)[C@@H]1O)([C]#[N+]CCCCCC(=O)N[C@H]1C(O)O[C@H](CO)[C@@H](O)[C@@H]1O)([C]#[N+]CCCCCC(=O)N[C@H]1C(O)O[C@H](CO)[C@@H](O)[C@@H]1O)([C]#[N+]CCCCCC(=O)N[C@H]1C(O)O[C@H](CO)[C@@H](O)[C@@H]1O)[C]#[N+]CCCCCC(=O)N[C@H]1C(O)O[C@H](CO)[C@@H](O)[C@@H]1O)N[C@H]1C(O)O[C@H](CO)[C@@H](O)[C@@H]1O (some centres unmarked) | SPECT | BALB/c nude mouse TE-1 xenograft | – | relative to: kidney over tumour | kidney/tumour ratio | 2.01 |
| COCCOCCOCCOCCOCCOCCOCCOCCC(=O)NCCCc1cc2cc3nc(cc4[nH]c(cc5nc(c(OC)c1[nH]2)C(=O)C5(C)C)cc4CCc1ccc(C(=O)O)cc1)CC3(C)C | – | water with 5% DMF | room temperature | – | intersystem crossing yield | 0.47 |
| NS(=O)(=O)c1ccc(N2N=C(C(F)(F)F)CC2c2ccc(F)cc2F)cc1 (centres unmarked) | – | male Wistar rat, liver microsomes | 20 µM, pH 7.4 | – | depletion rate | 108 pmol/min/mg |
| Oc1ccc2ccccc2c1/N=N/c1ccccc1 | – | extracted rat blood QC samples | 0.2 µg/L, 2 h, room temperature, short-term stability | – | measured concentration | 0.217 µg/L |
| CCCC[C@H](NC(=O)CNC(=O)CNC(=O)CN1CCN(CC(=O)O)CCN(CC(=O)O)CC1)C(=O)N[C@H]1CC(=O)NCCCC[C@@H](C(N)=O)NC(=O)[C@H](Cc2c[nH]c3ccccc23)NC(=O)[C@H](CCCNC(=N)N)NC(=O)[C@@H](Cc2ccccc2)NC(=O)[C@H](Cc2c[nH]cn2)NC1=O [gallium-67 labelled] | – | female C57 mice, B16/F1 melanoma | intravenous, 0.037 MBq, 4 h | relative to: tumour over lung | tumour to tissue ratio | 60.2 |
| O=C(Nc1ccc(-c2noc(C3CC3)n2)c(Cl)c1)c1cccs1 | – | sodium acetate buffer | 24 h, pH 4.0, room temperature | – | thermodynamic solubility | 130 ± 19 µg/mL (≈ 376 µM) |
| CN(C)c1ccc(-c2nc3ccc(OCCCCCN4CCN5CCN(CC4)CC(=O)[O][Al]([18F])[O]C(=O)C5)cc3s2)cc1 | – | ICR mouse | intravenous, dose not given, 2 min | – | intestine uptake | 5.6 ± 1.41 % injected dose/organ |
| [11CH3]c1ccc2nc(C3CCC3)n(-c3ccc4[nH]ncc4c3)c2n1 | extrapolated from mouse | human female, Upper large intestine wall | – | – | absorbed dose | 6.3 µSv/MBq |
| CCc1noc(CC)c1C(=O)O[C@H]1C(C)=C[C@]23C(=O)[C@@H](C=C(CO)[C@@H](O)[C@]12O)[C@H]1[C@@H](C[C@H]3C)C1(C)C | – | phosphate buffer | concentration not given, up to 24 h, pH 7.4, 37 °C | – | 5-isomer level | < 3% |
| COC(=O)/C=C/C(=O)c1ccc(OC)cc1 | – | Sprague-Dawley rat, plasma | oral, 200 mg/kg | – | Vd/F | 996 L/kg |
| CCC[C@]1(NC(=O)c2sccc2Cl)C[C@H](O)C1 | nephelometry | HBSS with 1% DMSO | 6 h, pH 7.4 | – | kinetic solubility | ≥ 1000 µM |
| COCCOCCOCCOCCOCCOCCOCCOCCOCCOCCOCCOCCOCCOCCOCCOCCOCCOCCOCCOCCOCCOCCNC(=O)CCC1(Cc2ccccc2)c2ccccc2-c2ccc(-c3sc(-c4c5c(c(-c6sc(-c7ccc8c(c7)C(CCC(=O)NCCOCCOCCOCCOCCOCCOCCOCCOCCOCCOCCOCCOCCOCCOCCOCCOCCOCCOCCOCCOCCOCCOC)(Cc7ccccc7)c7ccccc7-8)c7c6OCCO7)c6nsnc46)N=S=N5)c4c3OCCO4)cc21 (centres unmarked) | ex vivo fluorescence imaging | KM mouse, female | iv, 15 mg/kg, 6 h | – | intestine to liver ratio | ~5 |
| CC(C)[C@H](NC(=O)CNC(=O)[C@H](CCC(N)=O)NC(=O)[C@H](C)N)C(=O)O | LC-MS/MS | human, male, plasma | intravenous, 10 mg/kg three times daily, day 2, first dose, 10 min infusion, geometric mean | – | volume of distribution | 4 L/kg |
| CC(C)(Sc1ccncc1-c1ccc(C#N)c2ccccc12)C(=O)OC1OC(C(=O)O)C(O)C(O)C1O (centres unmarked) | – | urine | oral, 15 mg, severe renal impairment | relative to: normal renal function | fraction excreted unchanged | ~63% |
| CCCC[C@H](NC(=O)[C@H](CC(C)C)N(C)C(=O)CNC(=O)[C@@H](NC(=O)[C@H](Cc1ccccc1)NC(=O)[C@H](CCCCN)NC(=O)[C@@H](N)CC(=O)O)C(C)C)C(N)=O | – | Göttingen minipig, plasma | subcutaneous, 100 µg/kg | – | AUC(0-t) | 28 ng·h/mL |
| CC[C@H](C)[C@@H]1NC(=O)[C@H](CCCNC(=N)N)NC(=O)[C@H](CC(=O)O)NC(=O)[C@H](CC(C)C)NC(=O)[C@H](CCCCN)NC(=O)[C@H](CC(C)C)NC(=O)CNC(=O)[C@H](Cc2ccccc2)NC(=O)[C@@H](NC(=O)CNC(=O)[C@H](CCCCN)NC(=O)[C@H](CO)NC(=O)[C@H](CC(C)C)NC(=O)CNC(=O)[C@H](CCCCN)NC(=O)[C@H](CCCCN)NC(=O)[C@H](CC(N)=O)NC(=O)[C@H](C)NC(=O)CNC(=O)[C@H](CCCCN)NC(=O)[C@H](Cc2ccc(O)cc2)NC(=O)[C@H](CCCCN)NC(=O)[C@H](CCCNC(=N)N)NC(=O)[C@H](C)NC(=O)[C@H](CC(N)=O)NC(=O)[C@@H]2CCCN2C(=O)[C@H](Cc2c[nH]cn2)NC(=O)[C@H](CCC(=O)O)NC(=O)[C@H](CCC(N)=O)NC(=O)[C@@H](N)CC(C)C)CSSC[C@@H](C(=O)O)NC(=O)CNC(=O)[C@H](CC(C)C)NC(=O)CNC(=O)[C@H](CO)NC(=O)[C@H](CCSC)NC(=O)[C@H](CO)NC(=O)CNC1=O | – | healthy adult men, plasma | subcutaneous, released from prodrug, single dose, together with: TransCon CNP prodrug | – | apparent half-life | ~5 days |
| CC[C@H](C)[C@H](NC(=O)[C@H](N)Cc1ccc(O)cc1)C(=O)N[C@H]1CSSC[C@@H](C(=O)N(C)[C@H](C(N)=O)[C@@H](C)CC)NC(=O)[C@H](CCCNC(=N)N)NC(=O)[C@H](Cc2c[nH]cn2)NC(=O)[C@H](C)NC(=O)CN(C)C(=O)[C@H](Cc2c[nH]c3ccccc23)NC(=O)[C@H](CC(=O)O)NC(=O)[C@H](CCC(N)=O)NC(=O)[C@H](Cc2cn(C)c3ccccc23)NC(=O)[C@H](C(C)C)NC1=O | UPLC-ESI-MS | human plasma | 0.36 µg/mL, 48 h, 25 °C, bench-top after SPE | – | recovery | 100.1 ± 0.1% |
| N=C(N)NCCC[C@@H]1NC(=O)[C@H](Cc2c[nH]c3ccccc23)NC(=O)[C@@H](CC2CCCCC2)NC(=O)[C@@H]2CCCN2C(=O)[C@@H](NC(=O)CCc2ccccc2)CCCNC1=O | – | C57BL/6J mouse, spinal cord | oral, 1 mg/kg, single dose, two-compartment model | – | alpha distribution rate constant | 0.9 h⁻¹ |

A few entries again:
| Structure (SMILES) | assay | test system | conditions | how to read | quantity | result |
| --- | --- | --- | --- | --- | --- | --- |
| COC(=O)/C=C/C(=O)c1ccc(OC)cc1 | – | Sprague-Dawley rat, plasma | oral, 200 mg/kg | – | Vd/F | 996 L/kg |
| CC[C@H](C)[C@@H]1NC(=O)[C@H](CCCNC(=N)N)NC(=O)[C@H](CC(=O)O)NC(=O)[C@H](CC(C)C)NC(=O)[C@H](CCCCN)NC(=O)[C@H](CC(C)C)NC(=O)CNC(=O)[C@H](Cc2ccccc2)NC(=O)[C@@H](NC(=O)CNC(=O)[C@H](CCCCN)NC(=O)[C@H](CO)NC(=O)[C@H](CC(C)C)NC(=O)CNC(=O)[C@H](CCCCN)NC(=O)[C@H](CCCCN)NC(=O)[C@H](CC(N)=O)NC(=O)[C@H](C)NC(=O)CNC(=O)[C@H](CCCCN)NC(=O)[C@H](Cc2ccc(O)cc2)NC(=O)[C@H](CCCCN)NC(=O)[C@H](CCCNC(=N)N)NC(=O)[C@H](C)NC(=O)[C@H](CC(N)=O)NC(=O)[C@@H]2CCCN2C(=O)[C@H](Cc2c[nH]cn2)NC(=O)[C@H](CCC(=O)O)NC(=O)[C@H](CCC(N)=O)NC(=O)[C@@H](N)CC(C)C)CSSC[C@@H](C(=O)O)NC(=O)CNC(=O)[C@H](CC(C)C)NC(=O)CNC(=O)[C@H](CO)NC(=O)[C@H](CCSC)NC(=O)[C@H](CO)NC(=O)CNC1=O | – | healthy adult men, plasma | subcutaneous, released from prodrug, single dose, together with: TransCon CNP prodrug | – | apparent half-life | ~5 days |
